Experimental data of several laboratories.
A part holds a random share of what one study measured. Positions count from the first letter of the parent shown.

Study 1 — method: universal PBM; molecule type: double-stranded DNA, one strand shown; matrix: in vitro; tested at: not given; direction: higher = stronger binding
Target: Sal-like protein 4, full length isoform B (SALL4, Homo sapiens, UniProt Q9UJQ4-2, residues 1-616)
Notes: 8-mer, flanks averaged, mean of replicates
Strand	E-score
AGCCATTC	-0.148
GAGGCATC	-0.205
GGCGTAAA	0.0533
GTGGGACA	-0.175
ATCTGGGG	-0.217
AGCGTATA	0.193
GGGCAAAC	-0.192
GTCACGAA	1e-05
GGAGAAGA	0.00427
AAATGACA	0.196
ACCCAGGA	-0.243
CAGCAATC	0.0225
CGCCCCAG	-0.328
ATGAACTG	0.136
AAGGTTTC	0.0117
AGTTGAAT	0.151
CTATCGAC	-0.136
CGCGCTAG	-0.159
GACAGGTC	-0.207
GGCCCATA	-0.0214

Study 2 — method: RNA Bind-n-Seq; molecule type: RNA; matrix: in vitro; tested at: 200 nM; notes: whole 134-nt RNA, ends assumed; together with: 150 mM KCl; baseline: input library; direction: higher = stronger binding
Target: Ras GTPase-activating protein-binding protein 1, full length (G3BP1, Homo sapiens, UniProt Q13283)
UniProt Q13283, sequence (whole entry, looked up): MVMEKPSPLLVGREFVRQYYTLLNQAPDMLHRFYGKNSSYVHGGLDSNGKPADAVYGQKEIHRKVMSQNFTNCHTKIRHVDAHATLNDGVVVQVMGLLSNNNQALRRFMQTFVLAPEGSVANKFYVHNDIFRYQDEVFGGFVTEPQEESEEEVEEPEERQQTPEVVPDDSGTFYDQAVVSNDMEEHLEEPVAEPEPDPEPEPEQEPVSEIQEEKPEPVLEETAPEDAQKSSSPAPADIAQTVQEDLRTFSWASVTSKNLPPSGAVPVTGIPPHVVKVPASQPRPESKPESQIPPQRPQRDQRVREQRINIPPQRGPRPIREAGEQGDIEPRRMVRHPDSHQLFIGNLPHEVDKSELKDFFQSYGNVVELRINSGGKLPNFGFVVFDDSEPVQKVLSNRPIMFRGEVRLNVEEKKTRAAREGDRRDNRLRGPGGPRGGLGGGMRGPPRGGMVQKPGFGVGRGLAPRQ
Shared flanks, not repeated: GGGAGUUCUACAGUCCGACGAUC … UGGAAUUCUCGGGUGUCAAGG
Strand	log2 enrichment
CAAGUCCUGUGCUACACAUCGUAUGUACCGAAUCGGGGUUUGGUUUGGGUUUGGGAAAGUAUUAUGUUACGCCGUUCGGAUCUGCACUUC	-0.284
UGGCCCUGGUGGCAUGCGGGGAGGAAGAGGUGGCCUCAUGGAUCGUGGUGGUCCCGGUGGAAUGUUCAGAGGUGCCCGUGGUGGAGACAG	0.368
GUCCUGUGCUACACAUCGUAUGUACCGAAUCGGGGAAAAAGGGGUGGGGUUUUUGGGGAAAGUAUUAUGUUACGCCGUUCGGAUCUGCAC	0.358
UGGGAGGUGGAUUUUGUUUAUUUUUUUAGCUCAUUUCCAGGGGUGGGAAUUUAUUUUUAAUAUGUGUCAUGAAUAAAGUUGUUUUUGAAA	0.244
UAACUUUAGAGGAGGAUCUGAUGGAUAUGGCAGUGGACGUGGAUUUGGGGAUGGCUAUGAUGGGUAUGGAGGAGGACCUGGAGGUGGCAA	0.429
AGUCCUGUGCUACACAUCGUAUGUACCGAAUCAAACCCAAAUUUUUAAAUUUUUAAAAAAGUAUUAUGUUACGCCGUUCGGAUCUGCACU	-0.392
AGUCCUGUGCUACACAUCGUAUGUACCGAAUCGGAAAAAAAGGUUUUUUUGGAAAGGAAAGUAUUAUGUUACGCCGUUCGGAUCUGCACU	-2.02
UAACUUUAGAGGAGGAUCUGAUGGAUAUGGCAGUGGACGUGGAUUUGGGGAUGGCUAUAAUGGGUAUGGAGUAGGACCUGGAGGUGGCAA	0.21
CUCAAGUCCUGUGCUACACAUCGUAUGUACCGAAUCGGUGGUUUGGUUUUUGGAAAGUAUUAUGUUACGCCGUUCGGAUCUGCACUUCCA	-0.344
UGGCCCUGGUGGCAUGCGGGGAGGAAGAGGUGGCCUCAUGGAUCGUGGUGGUCCCGGUGGAUUGUUCAGAGGUGGCCGUGGUGGAGACAG	0.445
GUCCUGUGCUACACAUCGUAUGUACCGAAUCGGGAAAAAAAGGGUGGGAAAAAAAGGGAAAGUAUUAUGUUACGCCGUUCGGAUCUGCAC	-0.373
GUCCUGUGCUACACAUCGUAUGUACCGAAUCGGUUUUUUUGGAAAAAAAGGUUUUUGGAAAGUAUUAUGUUACGCCGUUCGGAUCUGCAC	-1.37
UCCUCAAGUCCUGUGCUACACAUCGUAUGUACCGAAUCGGAAAGGUGGAGGAAAGUAUUAUGUUACGCCGUUCGGAUCUGCACUUCCAGC	-0.775
UCCUGUGCUACACAUCGUAUGUACCGAAUCGGGGCCCCCGGGGCCCCCGGGGCCCCCGGGAAAGUAUUAUGUUACGCCGUUCGGAUCUGC	-0.629

Study 3 — target: CCNE1, cyclin fold, Cln2 fusion (human); method: yeast growth competition, sequencing; matrix: yeast; notes: weak parent motif; baseline: not given; direction: higher = stronger binding
Starting sequence: ORC1 docking peptide (human); PRARKRLELGNLG
Substitution	normalised enrichment score
PRARKRLELGNDG [L12D]	-0.261
PRMRKRLELGNLG [A3M]	2.45
PRARKCLELGNLG [R6C]	0.179
PRARKRLELGNLH [G13H]	0.885
PRARKRLELPNLG [G10P]	-0.483
PRARKRLELGNLN [G13N]	0.397
PRARKRLPLGNLG [E8P]	0.546
ARARKRLELGNLG [P1A]	0.538
PRARKRLELDNLG [G10D]	1.16
PRARKRLELHNLG [G10H]	-0.0497
PRARARLELGNLG [K5A]	-0.104
PRARKRLELGNVG [L12V]	0.307
PRANKRLELGNLG [R4N]	0.63
PRARKRLELGNSG [L12S]	0.255
PRARKRLELGNQG [L12Q]	-0.229
PRARKRLILGNLG [E8I]	0.244
PRARKRLEYGNLG [L9Y]	0.683
PRARKRLEAGNLG [L9A]	0.684
PRACKRLELGNLG [R4C]	0.454
PRARKRDELGNLG [L7D]	0.588
KRARKRLELGNLG [P1K]	1.1
PRAVKRLELGNLG [R4V]	0.141
PPARKRLELGNLG [R2P]	-0.435
PRARKRLELGNLC [G13C]	0.022
PRARKRLELGNLA [G13A]	-0.141

Study 4 — method: RNA Bind-n-Seq; molecule type: RNA; matrix: in vitro; tested at: 365 nM; baseline: no-protein control; direction: higher = stronger binding
Target: RNA binding protein fox-1 homolog 2, RRM domain, GST-SBP tag (RBFOX2, Homo sapiens, UniProt O43251-10, residues 100-194)
Notes: natural RNA segment, single round, ends assumed
Shared flanks, not repeated: GGGAGUUCUACAGUCCGACGAUC … UGGAAUUCUCGGGUGCCAA
Construct (chain): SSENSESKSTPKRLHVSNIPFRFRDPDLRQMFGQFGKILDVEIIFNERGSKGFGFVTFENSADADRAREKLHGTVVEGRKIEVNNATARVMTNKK
Strand	RBNS enrichment (R)
GAUAGGUAGAUGUGAGUAAAAAGAACAGGAAAAAAUUGCUUCUUUUAUUGGUUUCCAAAGAAACAAACCAAACCAACCAGCUCUUGGAUGUGAAGAUAAAAUAGUGCUUU	1.07
AUUCAGAAGUCAAAGAAAUUACAUGUUUGGGAUUGAUGAGUCUUUAGGGCAGAAGCCAGCUGCAGAAGCCACUUUGAUGUUACCCAAGCCACAGCGCUAGAUAAGCCUCA	0.301
UGAAAUGUUUACCCCAUUGACCAAACUUGGCUCCAGCCAUUGCGGUGGUUUCUAGAUAGCCAGGCCCACCAAGAGAUAUUGCCCCUUGAUGAGAGUCAAACACCCUGCCU	0.38
CCUUAUAGGUCCAUGACCUGCUCUGUUCAGAGGCCUCUUGGCAGUGUGGCCUGUUUGUGCUGUCCUGCAUCCAGUGUGUUGGCCUGGCUAAGUGAAAACGGUGAGCUGUU	0.563
AUUUUGUCCUUUCUUCUCAUACUAAAGUGGAUCAUAGAAAAGUAAAAUAAAUUAUUUGAAAAAUGAAUCCUUAUGUCCUUCCCAUUAUUAUAGAGAAAAAUAGAAAGAUA	0.489
GACCCUUCCAUCUCUCCUGGGACAGGCAGGAACCAGAGGGACCAGGGCUCAAAUCUUGUACUAUGUGGCUUUGACAGACUACUGGCUCCAUGCUGGGCUCCCGGUUCUCA	0.308
AGACUAGUCAAGAUGUGAAUGCUAAUUGGAGAGAAAUAUAAUUUUAGGAAGAUGCACAUUGAUGUGGGGUUUUGAUGUGUCUGAUUUUGACUACUCAAGCUCUGUUUACA	0.888
CUAGGGGUCACUUAUCUCUAUUACGUAAUCUAACUGGAAUAAUUUCCUAGAAUUCUUACUAGUGAAAUCUUACCCAAGUAAAACAAUUUAUUAUUUUGAAUCCAAAUGAA	0.72
CUAGCAAGGACUAAAGAAUUUUAUAUCAAAAUUCUCCAGGCAUGUACCAGUUCGGGUUAAUAAAAUGAUGCCACUUGUGUCUUUUGUUCUUAAGCAGGGAAGAUAAGAGA	0.816
CCUGGCCGAUUGGUGCUCCUUCUACACUCAUACCUCUACCUCUCACUGGGGCCAGCAGGAGUUGGGAACCCCUCUGAGGUGAUUUGCCUGAGCAUGGGGUUCCGGCUGUC	0.521
AGAGACCAAGCCCUGCUGCAGAUUCGUCAGGCCAGGUGAAAGGGCCAGGCAGUUGCAGCUGAUGAUGUAAAUAUUUUGUACAGUAGAUAAAUAAAUGUUUAAAAGAACUA	0.602
UCACCAAGCUGAGGUGUCUGAAGCCUGGAGCUACUGGGACCCCUCCUCUCCUCUAUAGCUAUUAGAUGUGUCAGGACCAAGUUGACCCCAACUUUCAGAACGUCCCUAGC	0.245

Study 5 — method: protein binding microarray; molecule type: double-stranded DNA, one strand shown; matrix: in vitro; tested at: not given; baseline: not given; direction: higher = stronger binding
Target: Histone acetyltransferase KAT6A, both winged helices, GST fusion (KAT6A, Homo sapiens, UniProt Q92794, residues 1-181)
Notes: 8-mer, flanks averaged, mean of 2 arrays, mostly near background
Construct (chain): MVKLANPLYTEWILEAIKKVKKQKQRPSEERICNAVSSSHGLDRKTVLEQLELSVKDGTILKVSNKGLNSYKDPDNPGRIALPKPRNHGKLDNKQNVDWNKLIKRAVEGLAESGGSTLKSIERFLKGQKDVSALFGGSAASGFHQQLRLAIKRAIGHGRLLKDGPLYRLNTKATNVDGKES
Strand	E-score
ACAATGCC	0.0487
CACTATGC	-0.0226
AGTTTTGC	0.0473
AACTTTGG	-0.0901
TGGACCCA	-0.12
CCCTGGCG	0.093
TCGCAACA	0.00671
CTCGGCCA	0.067
GTCTGTGA	-0.0283
AACAACTT	-0.0209
ACGCAAGC	0.0938
CGGAGTGA	0.111
CATAAAGC	-0.0785
GGCTCAAA	0.11
AGAGACGG	-0.0295
CACTCTAA	-0.221
AGCGTCAG	0.0301
AGACTCAC	-0.242
CCCGATCG	0.229
ATATTGGA	-0.152
CGAAGCCA	-0.132
ACTTGATG	-0.00588
ACGACCAT	-0.261
ATTTAAAT	-0.0658
GAAAACCC	0.0147

Repeated from above (study 5):
Strand	E-score
AGCGTCAG	0.0301
TCGCAACA	0.00671
CCCTGGCG	0.093
AACTTTGG	-0.0901
ACTTGATG	-0.00588
